# Assay results collected from several papers.
# Numbered parts are unrelated; each lists some results of a single study. Values joined by “and” are separate records of one study, mostly repeats; a detail may differ.
# UniProt P10721, sequence (whole entry, unmodified, looked up): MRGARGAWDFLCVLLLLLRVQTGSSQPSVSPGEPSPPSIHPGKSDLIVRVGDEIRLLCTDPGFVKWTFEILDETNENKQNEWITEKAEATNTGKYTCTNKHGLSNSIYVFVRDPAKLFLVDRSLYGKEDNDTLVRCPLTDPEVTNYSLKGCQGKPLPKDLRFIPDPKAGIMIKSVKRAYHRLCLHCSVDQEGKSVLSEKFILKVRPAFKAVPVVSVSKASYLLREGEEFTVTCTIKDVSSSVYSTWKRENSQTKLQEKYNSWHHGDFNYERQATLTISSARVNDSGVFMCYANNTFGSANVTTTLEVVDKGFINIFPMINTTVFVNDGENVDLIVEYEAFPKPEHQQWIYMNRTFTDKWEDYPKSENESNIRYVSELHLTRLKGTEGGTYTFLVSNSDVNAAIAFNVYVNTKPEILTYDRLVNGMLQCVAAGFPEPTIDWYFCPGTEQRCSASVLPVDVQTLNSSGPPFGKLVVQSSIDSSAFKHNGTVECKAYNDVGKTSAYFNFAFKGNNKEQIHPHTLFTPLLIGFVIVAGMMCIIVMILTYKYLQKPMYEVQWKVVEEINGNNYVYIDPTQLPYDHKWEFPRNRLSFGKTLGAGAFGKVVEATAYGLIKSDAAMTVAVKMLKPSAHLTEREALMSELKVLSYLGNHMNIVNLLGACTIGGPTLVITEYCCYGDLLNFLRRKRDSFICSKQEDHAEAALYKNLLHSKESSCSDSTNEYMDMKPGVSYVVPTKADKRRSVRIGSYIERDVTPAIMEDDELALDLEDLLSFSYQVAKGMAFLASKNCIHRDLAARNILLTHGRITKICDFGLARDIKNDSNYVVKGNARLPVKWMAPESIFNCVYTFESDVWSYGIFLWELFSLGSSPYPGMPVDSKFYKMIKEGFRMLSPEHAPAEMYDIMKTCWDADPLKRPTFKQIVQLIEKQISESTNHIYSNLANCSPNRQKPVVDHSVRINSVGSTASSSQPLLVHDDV
# UniProt Q99759, sequence (whole entry, looked up): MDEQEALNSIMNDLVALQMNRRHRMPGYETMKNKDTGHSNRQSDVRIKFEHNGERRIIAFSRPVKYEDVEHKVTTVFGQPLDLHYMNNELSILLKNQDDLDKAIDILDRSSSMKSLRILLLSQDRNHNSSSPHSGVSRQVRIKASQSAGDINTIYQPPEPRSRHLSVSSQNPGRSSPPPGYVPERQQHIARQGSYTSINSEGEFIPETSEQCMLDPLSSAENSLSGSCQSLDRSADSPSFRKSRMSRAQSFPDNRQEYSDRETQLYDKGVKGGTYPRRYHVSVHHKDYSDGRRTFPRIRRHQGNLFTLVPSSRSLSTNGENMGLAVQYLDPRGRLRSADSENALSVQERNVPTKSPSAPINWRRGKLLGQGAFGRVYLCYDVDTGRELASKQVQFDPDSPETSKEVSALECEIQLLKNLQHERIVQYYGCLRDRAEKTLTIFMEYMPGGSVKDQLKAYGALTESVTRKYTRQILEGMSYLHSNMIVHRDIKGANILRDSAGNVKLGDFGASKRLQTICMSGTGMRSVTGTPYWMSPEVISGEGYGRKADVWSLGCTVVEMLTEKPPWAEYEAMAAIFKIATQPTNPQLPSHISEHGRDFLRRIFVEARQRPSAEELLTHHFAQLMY
# UniProt Q15303, sequence (whole entry, looked up): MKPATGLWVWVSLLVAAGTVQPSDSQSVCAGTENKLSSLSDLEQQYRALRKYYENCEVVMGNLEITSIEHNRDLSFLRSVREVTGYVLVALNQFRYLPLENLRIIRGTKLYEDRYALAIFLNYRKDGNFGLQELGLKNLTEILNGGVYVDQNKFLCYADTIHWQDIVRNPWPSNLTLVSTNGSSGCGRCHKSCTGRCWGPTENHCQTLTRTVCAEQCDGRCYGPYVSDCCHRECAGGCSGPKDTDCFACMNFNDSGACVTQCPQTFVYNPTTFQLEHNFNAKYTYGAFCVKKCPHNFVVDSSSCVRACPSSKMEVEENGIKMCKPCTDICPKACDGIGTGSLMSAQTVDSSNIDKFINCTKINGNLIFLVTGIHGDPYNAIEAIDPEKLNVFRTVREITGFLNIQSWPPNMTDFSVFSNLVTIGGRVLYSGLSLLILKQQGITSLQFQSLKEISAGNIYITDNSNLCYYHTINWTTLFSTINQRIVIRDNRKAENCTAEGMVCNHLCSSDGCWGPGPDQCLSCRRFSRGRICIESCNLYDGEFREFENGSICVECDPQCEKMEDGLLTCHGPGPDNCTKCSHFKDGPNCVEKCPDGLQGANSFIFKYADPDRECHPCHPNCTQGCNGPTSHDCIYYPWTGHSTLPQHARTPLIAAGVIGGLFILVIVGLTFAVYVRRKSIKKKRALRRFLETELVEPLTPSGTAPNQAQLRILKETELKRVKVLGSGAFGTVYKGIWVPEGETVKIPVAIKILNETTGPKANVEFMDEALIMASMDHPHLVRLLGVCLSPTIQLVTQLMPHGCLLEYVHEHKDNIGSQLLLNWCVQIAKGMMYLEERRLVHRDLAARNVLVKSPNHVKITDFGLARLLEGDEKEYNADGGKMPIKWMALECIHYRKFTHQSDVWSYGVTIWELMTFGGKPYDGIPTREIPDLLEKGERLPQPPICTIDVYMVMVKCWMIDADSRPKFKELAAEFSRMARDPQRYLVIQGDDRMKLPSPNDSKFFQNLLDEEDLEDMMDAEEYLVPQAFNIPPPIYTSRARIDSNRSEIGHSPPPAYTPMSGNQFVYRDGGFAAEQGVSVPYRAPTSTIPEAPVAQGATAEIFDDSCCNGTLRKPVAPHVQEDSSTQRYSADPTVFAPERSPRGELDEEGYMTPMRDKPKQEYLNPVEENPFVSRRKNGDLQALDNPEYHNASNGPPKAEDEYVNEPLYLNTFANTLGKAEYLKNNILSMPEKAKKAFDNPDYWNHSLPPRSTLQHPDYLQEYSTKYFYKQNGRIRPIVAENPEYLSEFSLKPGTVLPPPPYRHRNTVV
# UniProt Q16288, sequence (whole entry, looked up): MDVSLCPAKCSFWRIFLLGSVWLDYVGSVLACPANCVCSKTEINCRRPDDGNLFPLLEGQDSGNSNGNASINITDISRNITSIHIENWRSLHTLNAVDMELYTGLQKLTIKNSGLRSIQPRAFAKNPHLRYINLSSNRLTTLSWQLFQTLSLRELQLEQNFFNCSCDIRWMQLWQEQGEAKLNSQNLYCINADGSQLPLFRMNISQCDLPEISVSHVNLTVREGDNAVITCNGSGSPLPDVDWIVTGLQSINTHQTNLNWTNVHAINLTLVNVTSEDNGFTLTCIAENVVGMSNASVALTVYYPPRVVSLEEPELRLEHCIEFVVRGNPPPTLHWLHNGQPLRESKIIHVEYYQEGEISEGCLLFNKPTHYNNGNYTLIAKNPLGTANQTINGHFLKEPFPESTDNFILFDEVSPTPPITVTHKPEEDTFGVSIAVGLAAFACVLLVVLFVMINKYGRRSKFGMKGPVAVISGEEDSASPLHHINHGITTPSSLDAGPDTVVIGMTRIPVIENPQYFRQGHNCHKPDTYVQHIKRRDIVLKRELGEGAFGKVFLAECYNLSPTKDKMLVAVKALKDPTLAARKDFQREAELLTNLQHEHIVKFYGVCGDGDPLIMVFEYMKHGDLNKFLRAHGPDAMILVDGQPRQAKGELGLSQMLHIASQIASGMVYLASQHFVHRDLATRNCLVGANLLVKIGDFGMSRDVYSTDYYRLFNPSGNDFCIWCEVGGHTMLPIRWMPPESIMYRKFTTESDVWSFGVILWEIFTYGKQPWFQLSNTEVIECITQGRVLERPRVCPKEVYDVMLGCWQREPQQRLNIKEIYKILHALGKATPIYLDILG
# UniProt O00506, sequence (whole entry, looked up): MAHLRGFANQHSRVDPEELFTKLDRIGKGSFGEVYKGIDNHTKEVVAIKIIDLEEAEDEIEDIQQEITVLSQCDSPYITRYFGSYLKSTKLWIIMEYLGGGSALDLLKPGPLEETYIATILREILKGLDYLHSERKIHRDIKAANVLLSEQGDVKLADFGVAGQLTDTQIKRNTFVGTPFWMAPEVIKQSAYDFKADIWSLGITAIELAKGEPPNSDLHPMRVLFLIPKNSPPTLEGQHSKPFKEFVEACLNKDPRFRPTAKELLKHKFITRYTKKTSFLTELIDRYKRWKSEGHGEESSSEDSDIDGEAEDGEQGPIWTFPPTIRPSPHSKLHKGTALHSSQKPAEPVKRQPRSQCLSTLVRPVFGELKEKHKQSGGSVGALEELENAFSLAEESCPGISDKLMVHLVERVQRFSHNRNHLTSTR
# UniProt P22607, sequence (whole entry, unmodified, looked up): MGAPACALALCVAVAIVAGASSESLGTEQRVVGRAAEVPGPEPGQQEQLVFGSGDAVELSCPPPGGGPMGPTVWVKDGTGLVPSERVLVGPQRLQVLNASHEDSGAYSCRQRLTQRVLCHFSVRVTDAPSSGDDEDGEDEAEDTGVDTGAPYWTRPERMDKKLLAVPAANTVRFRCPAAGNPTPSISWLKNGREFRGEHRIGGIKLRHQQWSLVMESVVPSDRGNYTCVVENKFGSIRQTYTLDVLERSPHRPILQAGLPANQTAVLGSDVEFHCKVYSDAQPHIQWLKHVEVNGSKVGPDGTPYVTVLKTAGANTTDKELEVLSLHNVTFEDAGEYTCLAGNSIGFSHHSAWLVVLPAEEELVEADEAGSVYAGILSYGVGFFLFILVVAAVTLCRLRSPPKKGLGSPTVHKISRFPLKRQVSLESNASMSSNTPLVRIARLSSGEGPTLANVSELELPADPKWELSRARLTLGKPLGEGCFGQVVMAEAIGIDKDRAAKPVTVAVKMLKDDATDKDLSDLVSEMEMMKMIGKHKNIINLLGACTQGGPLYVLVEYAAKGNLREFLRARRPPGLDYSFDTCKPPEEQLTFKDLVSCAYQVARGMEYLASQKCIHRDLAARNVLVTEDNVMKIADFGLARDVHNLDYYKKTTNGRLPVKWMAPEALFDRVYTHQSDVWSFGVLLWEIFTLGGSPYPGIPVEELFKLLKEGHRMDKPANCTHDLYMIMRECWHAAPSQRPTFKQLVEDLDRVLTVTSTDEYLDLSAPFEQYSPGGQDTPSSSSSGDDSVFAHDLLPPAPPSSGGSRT

# Series 1 — cell line: U-87 MG; concentration: concentration not given; baseline: DMSO
# Compound: CCN1/C(=C/C=C2\CCCC(/C=C/C3=[N+](CC)c4ccccc4C3(C)C)=C2NCCCCCCCCN2CCC(Nc3nc4ccccc4n3Cc3ccc(F)cc3)CC2)C(C)(C)c2ccccc21
item,log2 fold change
CUEDC1 mRNA,-1.2
KLHL21 mRNA,0.97
TBC1D15 mRNA,0.806
CCR7 mRNA,-4.82
CAMK2N1 mRNA,-0.833
BUB1B-PAK6 mRNA,-4.92
P2RY6 mRNA,-4.17
BTBD9 mRNA,0.822
CDS1 mRNA,-1.35
ERN1 mRNA,2.38
PALLD mRNA,-0.901
SLC41A2 mRNA,1.48
CDKN2D mRNA,-1.05
SOX4 mRNA,1.87
EGR1 mRNA,-0.997
CNN2 mRNA,-1.96

# Series 2 — organism: Arabidopsis thaliana; strain: Col-0
# Compound: O=C(O)C1Oc2cc(F)ccc2N(Cc2ccccc2)C1=O (stereo not shown)
concentration,notes,hypocotyl length
12.5 µg/mL,"seed germination, repetition mean",2.1 cm
3.125 µg/mL,"seed germination, repetition mean",2.33 cm
6.25 µg/mL,"seed germination, single repetition",2.31 cm and 2.28 cm and 2.35 cm and 2.34 cm and 2.2 cm
25 µg/mL,"seed germination, single repetition",2.03 cm and 2.11 cm and 2.01 cm and 2.09 cm
25 µg/mL,"seed germination, repetition mean",2.06 cm
6.25 µg/mL,"seed germination, repetition mean",2.3 cm
50 µg/mL,"seed germination, repetition mean",1.83 cm
100 µg/mL,"seed germination, single repetition",1.53 cm and 1.54 cm and 1.51 cm and 1.59 cm
3.125 µg/mL,"seed germination, single repetition",2.35 cm and 2.36 cm and 2.34 cm

# Series 3 — concentration: 1 µM
# SMILES: CC[C@@]1(c2cccc(-c3c(F)cncc3OC)c2)C2=C(Nc3n[nH]cc31)[C@H](F)C(C)(C)CC2=O (single isomer, unassigned)
target,effect on,method,baseline,remaining binding
"Ribosomal protein S6 kinase alpha-5, N-terminal kinase domain (RPS6KA5, Homo sapiens, UniProt O75582)",kinase binding,KINOMEscan,DMSO control,100%
"Mitogen-activated protein kinase kinase kinase kinase 2 (MAP4K2, Homo sapiens, UniProt Q12851)",binding,competition with immobilised ligand,,72%
"Bone morphogenetic protein receptor type-1A (BMPR1A, Homo sapiens, UniProt P36894)",kinase binding,KINOMEscan,DMSO control,100%
"Mast/stem cell growth factor receptor Kit (KIT, Homo sapiens, UniProt P10721, A829P)",binding,competition with immobilised ligand,,56%
"Fibroblast growth factor receptor 3 (FGFR3, Homo sapiens, UniProt P22607, G697C)",kinase binding,KINOMEscan,DMSO control,100%
"FLT3 ITD, human",,KINOMEscan,,93%
"Serine/threonine-protein kinase 25 (STK25, Homo sapiens, UniProt O00506)",kinase binding,KINOMEscan,DMSO control,85%
"Mitogen-activated protein kinase kinase kinase 13 (MAP3K13, Homo sapiens, UniProt O43283)",binding,competition with immobilised ligand,,70%
"Interleukin-1 receptor-associated kinase 4 (IRAK4, Homo sapiens, UniProt Q9NWZ3)",binding,competition with immobilised ligand,,84%
"Misshapen-like kinase 1 (MINK1, Homo sapiens, UniProt Q8N4C8)",binding,competition with immobilised ligand,,41%
"Mitogen-activated protein kinase 11 (MAPK11, Homo sapiens, UniProt Q15759)",binding,competition with immobilised ligand,,79%
"NT-3 growth factor receptor (NTRK3, Homo sapiens, UniProt Q16288)",kinase binding,KINOMEscan,DMSO control,88%
"Epidermal growth factor receptor (EGFR, Homo sapiens, UniProt P00533, del747-750/T751S)",kinase binding,KINOMEscan,DMSO control,93%
"Receptor tyrosine-protein kinase erbB-4 (ERBB4, Homo sapiens, UniProt Q15303)",binding,competition with immobilised ligand,,69%
"Phosphatidylinositol 4,5-bisphosphate 3-kinase catalytic subunit delta isoform (PIK3CD, Homo sapiens, UniProt O00329)",binding,competition with immobilised ligand,,100%
"Myosin-IIIa (MYO3A, Homo sapiens, UniProt Q8NEV4)",kinase binding,KINOMEscan,DMSO control,75%
"Mast/stem cell growth factor receptor Kit (KIT, Homo sapiens, UniProt P10721, L576P)",binding,competition with immobilised ligand,,100%
"Serine/threonine-protein kinase Nek5 (NEK5, Homo sapiens, UniProt Q6P3R8)",binding,competition with immobilised ligand,,100%

# Series 4 — method: microarray; baseline: untreated
# Structure (SMILES): COCCCCCCC1CC2C(CCC3(C)C(O)CCC23)c2ccc(O)cc21 (stereo not shown)
cell line,item,concentration,log2 fold change
PANC-1,UBB,10 µM,-0.973
A549,GADD45A,10 µM,0.953
PANC-1,CCL11,10 µM,0
SK-OV-3,ADAMTS14,10 µM,0.408
PANC-1,ADAMTS8,10 µM,-0.982
SK-OV-3,GADD45A,10 µM,-0.305
SK-OV-3,ADAMTS8,10 µM,-0.654
A549,CCL11,50 µM,0
PANC-1,CCL11,50 µM,0
A549,ADAMTS8,50 µM,-1.54

# Series 5 — cell line: HCC1569; method: in-cell western; item: CDK1 phospho-Thr14; concentration: 370.37 nM
SMILES,pCDK1 (Thr14) level
Cc1ncc(-c2cc3c(C(N)=O)c(-c4c(C)ccc(O)c4C)cnc3[nH]2)cn1,8.65 RLU and 12.9 RLU
Cc1ccc(O)c(C)c1-c1cnc2[nH]c(-c3cnc(N4CCC(CCN5CCN(c6ccc(N7CCC(=O)NC7=O)cc6F)CC5)CC4)nc3)cc2c1C#N,72.8 RLU and 75.5 RLU
Cc1ccc(O)c(C)c1-c1cnc2[nH]c(-c3cnc(N4CCC(CCN5CCN(c6ccc(NC7CCC(=O)NC7=O)cc6F)CC5)CC4)nc3)cc2c1C#N (stereo not shown),131 RLU and 126 RLU
Cc1ccc(O)c(C)c1-c1cnc2[nH]c(-c3cnc(N4CCC(CN5CCN(c6ccc7c(c6)CN(C6CCC(=O)NC6=O)C7=O)CC5)CC4)nc3)cc2c1C#N (stereo not shown),91.5 RLU and 96.2 RLU
Cc1ncc(-c2cc3c(Cl)c(-c4c(C)ccc(O)c4C)cnc3[nH]2)cn1,34.2 RLU and 25.4 RLU
Cc1ccc(O)c(C)c1-c1cnc2[nH]c(-c3cnc(N)nc3)cc2c1C#N,62.7% and 62.1%
Cc1ccc(O)c(C)c1-c1cnc2[nH]c(-c3cnc(N4CCC5(CC4)CC(CN4CCN(c6ccc(NC7CCC(=O)NC7=O)cc6F)CC4)C5)nc3)cc2c1C#N (stereo not shown),109 RLU and 117 RLU
Cc1ncc(-c2cc3c(C(F)(F)F)c(-c4c(C)ccc(O)c4C)cnc3[nH]2)cn1,26.9 RLU and 39.2 RLU

# Series 6 — SMILES: O=C(Nc1ccccc1)Nc1cccc(Oc2ccc3nccn3n2)c1; effect on: binding; concentration: 1 µM
target,method,remaining binding [%]
"Phosphatidylinositol 4,5-bisphosphate 3-kinase catalytic subunit gamma isoform (PIK3CG, Homo sapiens, UniProt P48736)",,94
"Serine/threonine-protein kinase 10 (STK10, Homo sapiens, UniProt O94804)",competition with immobilised ligand,82
"Phosphatidylinositol 4-kinase beta (PI4KB, Homo sapiens, UniProt Q9UBF8)",,100
"Mitogen-activated protein kinase kinase kinase 3 (MAP3K3, Homo sapiens, UniProt Q99759)",competition with immobilised ligand,100
"Dual specificity tyrosine-phosphorylation-regulated kinase 2 (DYRK2, Homo sapiens, UniProt Q92630)",,100
"Proto-oncogene tyrosine-protein kinase receptor Ret (RET, Homo sapiens, UniProt P07949, V804L)",,87
"Dual specificity protein kinase CLK4 (CLK4, Homo sapiens, UniProt Q9HAZ1)",,100
"Tyrosine-protein kinase Fes/Fps (FES, Homo sapiens, UniProt P07332)",,100
"Serine/threonine-protein kinase DCLK3 (DCLK3, Homo sapiens, UniProt Q9C098)",competition with immobilised ligand,31

# Series 7 — cell line: MDA-MB-468; effect on: cell viability; method: CellCounting-Lite; concentration: 0.3048 nM; temperature: 37 °C; direction: higher = more viable cells
Compound,luminescence signal
CCn1cnc2c(NCc3nc4cc(F)c(F)cc4[nH]3)nc(N3CCn4ncnc4C3)nc21,454000 a.u. and 444000 a.u. and 434000 a.u.
CCn1cnc2c(NCc3nc4cc(Cl)c(Cl)cc4[nH]3)nc(N3CCN(C(=O)CNC(C)=O)CC3)nc21,415000 a.u. and 485000 a.u. and 386000 a.u.
CCn1cnc2c(NCc3nc4cc(Cl)c(Cl)cc4[nH]3)nc(N3CCN(C(=O)[C@H](C)NC(C)=O)CC3)nc21,510000 a.u. and 450000 a.u. and 524000 a.u.
CCn1cnc2c(NCc3nc4cc(Cl)c(Cl)cc4[nH]3)nc(N3CCN(C(=O)c4ccccn4)CC3)nc21,394000 a.u. and 505000 a.u. and 383000 a.u.
Cn1cc(-n2cnc3c(NCc4nc5cc(Cl)c(Cl)cc5[nH]4)nc(N4CCNCC4)nc32)cn1,607000 a.u. and 588000 a.u. and 586000 a.u.
CCn1cnc2c(NCc3nc4cc(Cl)c(Cl)cc4[nH]3)nc(N3CCN(C(=O)c4ccccc4)CC3)nc21,457000 a.u. and 463000 a.u. and 521000 a.u.
CCn1cnc2c(NCc3nc4cc(Cl)c(Cl)cc4[nH]3)nc(N3CCN(Cc4ccncc4)CC3)nc21,449000 a.u. and 480000 a.u. and 549000 a.u.
CC(=O)N1CCN(c2nc(NCc3nc4cc(Cl)c(Cl)cc4[nH]3)c3ncn(C)c3n2)CC1,412000 a.u. and 419000 a.u. and 498000 a.u.
CCn1cnc2c(NCc3nc4ccc(F)c(F)c4[nH]3)nc(N3CCn4ncnc4C3)nc21,495000 a.u. and 427000 a.u. and 389000 a.u.
CCn1cnc2c(NCc3nc4cc(Cl)c(Cl)cc4[nH]3)nc(N3CCN(c4ccccn4)CC3)nc21,452000 a.u. and 454000 a.u. and 409000 a.u.
CC(=O)N1CCN(c2nc(NCc3nc4cc(Cl)c(Cl)cc4[nH]3)c3ncn(-c4cnn(C)c4)c3n2)CC1,457000 a.u. and 471000 a.u. and 524000 a.u.
CCCCOc1nc(NCc2nc3cc(Cl)c(Cl)cc3[nH]2)c2ncn(CC)c2n1,513000 a.u. and 474000 a.u. and 466000 a.u.
CCn1cnc2c(NCc3nc4cc(Cl)c(Cl)cc4[nH]3)nc(N3CCn4ncnc4C3)nc21,483000 a.u. and 502000 a.u. and 539000 a.u.
CCn1cnc2c(NCc3nc4cc(Cl)c(Cl)cc4[nH]3)nc(N3CCN(C(=O)c4ccncc4)CC3)nc21,433000 a.u. and 407000 a.u. and 400000 a.u.
CCn1cnc2c(NCc3nc4cc(Cl)c(Cl)cc4[nH]3)nc(N3CCN(S(C)(=O)=O)CC3)nc21,505000 a.u. and 473000 a.u. and 511000 a.u.
CCn1cnc2c(NCc3nc4cc(Cl)c(Cl)cc4[nH]3)nc(N3CCN(C(=O)c4cccnc4)CC3)nc21,371000 a.u. and 472000 a.u. and 476000 a.u.
CCn1cnc2c(NCc3nc4cc(Cl)c(Cl)cc4[nH]3)nc(N3CCC(NC(C)=O)CC3)nc21,449000 a.u. and 431000 a.u. and 469000 a.u.
CC(=O)N1CCN(c2nc(NCc3nc4cc(Cl)c(Cl)cc4[nH]3)c3ncn(C(C)C)c3n2)CC1,419000 a.u. and 466000 a.u. and 472000 a.u.
